Assay results pooled from the literature.
Protocols differ between the studies behind these lines. ± gives the spread as reported.
CA5A: Carbonic anhydrase 5A, mitochondrial (CA5A, Homo sapiens, UniProt P35218)
BIRC3 BIR3: Baculoviral IAP repeat-containing protein 3, BIR3 (BIRC3, Homo sapiens, UniProt Q13489)

SMILES	target	test	conditions	Ki
Cc1cc(N)nc(C[C@@H]2CNC[C@@H]2OCCCCOc2cc(F)cc(Cl)c2)c1	Nitric oxide synthase 3 (NOS3, Bos taurus, UniProt P29473)	enzyme activity, inhibitor	pH 7.4	4.4 µM
CCOC(=O)c1cc2cc(C(=O)N3CCN(CCOc4ccccc4)CC3)ccc2[nH]1	Monoglyceride lipase (MGLL, Homo sapiens, UniProt Q99685)	enzyme activity, inhibitor	–	10.4 µM
O=C(/C=C/c1ccc(O)c(O)c1)N[C@@H](Cc1ccccc1)C(=O)NCCCOc1c(-c2ccc(O)c(O)c2)oc2cc(O)cc(O)c2c1=O	Pancreatic alpha-amylase (Homo sapiens, UniProt P04746)	inhibitor	pH 7	2.8 ± 0.4 µM
COCCOc1cc2ncnc(Nc3cccc(-c4cn(CC(=O)Nc5cccc(S(N)(=O)=O)c5)nn4)c3)c2cc1OCCOC	CA5A	enzyme activity, inhibitor, stopped-flow	–	0.0124 µM
CCc1ccc(CNC(=O)[C@@H]2CC[C@@H]3CCN(C(=O)Cc4ccccc4)C[C@H](NC(=O)[C@H](C)NC)C(=O)N32)cc1	BIRC3 BIR3	ligand displacement, FP	–	0.022 µM
O=C(Nc1cccc(-c2nn[nH]n2)c1)c1cc(-c2ccncc2)cc(C(F)(F)F)c1	Beta-lactamase CTX-M-27 (Escherichia coli, UniProt Q840M4)	enzyme activity, inhibitor, absorbance	pH 7	3.06 µM
CCCCCCCCN=C1SC[C@@H]2[C@@H](O)[C@H](O)[C@@H](O)[C@@H](CCCCCCCC)N12	Alpha-galactosidase (Coffea arabica, UniProt Q42656)	enzyme activity, competitive inhibitor	green coffee bean enzyme, optimal pH, added: p-nitrophenyl glycopyranoside	> 2000 µM
CN(C)c1ccc2c(c1)C(=O)N(CCS)C2=O	Metallo-beta-lactamase VIM-2 (VIM-2, Escherichia coli, UniProt Q5U7L7)	enzyme activity, inhibitor	Km 8 µM, added: chromacef 25 µM	0.06 ± 0.01 µM
CN[C@@H](C)C(=O)N[C@H]1CN(C(=O)Cc2ccccc2)CC[C@H]2CC[C@@H](C(=O)NCc3ccccc3F)N2C1=O	BIRC3 BIR3	ligand displacement, FP	–	0.0257 µM
O=c1c2ccccc2n(CC2CC2)c(=O)n1O	Flap endonuclease 1 (Homo sapiens, UniProt P39748)	inhibitor	added: double-flap substrate DF1	0.017 ± 0.002 µM
CC[C@H](C)[C@H](NC(C)=O)C(=O)N[C@H](C(=O)N[C@H](C(=O)N[C@@H](CCCCNC(C)=O)C(=O)N[C@H](C=O)CC(=O)O)C(C)C)[C@@H](C)O	Caspase-7 (CASP7, Homo sapiens, UniProt P55210)	enzyme activity, inhibitor, fluorescence	pH 7	0.224 µM
CN[C@@H](C)C(=O)N[C@H]1CN(C(=O)Cc2ccccc2)CC[C@H]2CC[C@@H](C(=O)NCc3ccc(Cl)cc3)N2C1=O	Baculoviral IAP repeat-containing protein 2, BIR3 (BIRC2, Homo sapiens, UniProt Q13490)	ligand displacement, FP	–	0.0011 µM
COCCOc1cc2ncnc(Nc3cccc(-c4cn(CC(=O)Nc5ccc(S(N)(=O)=O)cc5)nn4)c3)c2cc1OCCOC	CA5A	enzyme activity, inhibitor, stopped-flow	–	0.0083 µM
Oc1cc(O)c2c(c1)O[C@H](c1ccc(O)c(O)c1)[C@@H](O)[C@@H]2c1c(O)cc(O)c2c1O[C@H](c1ccc(O)c(O)c1)[C@H](O)C2	PPO3 (Agaricus bisporus, UniProt C7FF04)	enzyme activity, inhibitor, absorbance	–	30.5 µM

Repeated from above:
SMILES	target	test	conditions	Ki
CN(C)c1ccc2c(c1)C(=O)N(CCS)C2=O	Metallo-beta-lactamase VIM-2 (VIM-2, Escherichia coli, UniProt Q5U7L7)	enzyme activity, inhibitor	Km 8 µM, added: chromacef 25 µM	0.06 ± 0.01 µM
